{"data": "Published values pooled from the literature", "note": "A part holds a random share of what one study measured. Positions count from the first letter of the parent shown."}
{"data": "Sample 1", "target": "CCND3, cyclin fold, Cln2 fusion (human)", "technique": "yeast growth competition, sequencing", "medium": "yeast", "setting": "weak parent motif", "baseline": "not given", "reading": "higher = stronger binding", "starting sequence": "CDKN1B docking peptide (human); PSACRNLFGPVDH"}
{"Variant": "N6M", "normalised enrichment score": 0.111}
{"Variant": "C4R", "normalised enrichment score": 0.123}
{"Variant": "A3E", "normalised enrichment score": 0.188}
{"Variant": "S2V", "normalised enrichment score": 0.134}
{"data": "Sample 2", "target": "Interferon regulatory factor 7, full length, phosphomimetic (IRF7, Homo sapiens, UniProt Q92985, residues 1-503, S471D/S472D/S475D/S476D/S477D/S483D/S484D/S487D)", "technique": "protein-binding microarray", "molecule type": "double-stranded DNA, one strand shown", "medium": "in vitro", "tested at": "2200 nM top", "setting": "60-bp whole probe", "with": "salmon DNA 0.4 mg/ml", "baseline": "random background probes", "reading": "higher = stronger binding", "Target sequence (chain)": "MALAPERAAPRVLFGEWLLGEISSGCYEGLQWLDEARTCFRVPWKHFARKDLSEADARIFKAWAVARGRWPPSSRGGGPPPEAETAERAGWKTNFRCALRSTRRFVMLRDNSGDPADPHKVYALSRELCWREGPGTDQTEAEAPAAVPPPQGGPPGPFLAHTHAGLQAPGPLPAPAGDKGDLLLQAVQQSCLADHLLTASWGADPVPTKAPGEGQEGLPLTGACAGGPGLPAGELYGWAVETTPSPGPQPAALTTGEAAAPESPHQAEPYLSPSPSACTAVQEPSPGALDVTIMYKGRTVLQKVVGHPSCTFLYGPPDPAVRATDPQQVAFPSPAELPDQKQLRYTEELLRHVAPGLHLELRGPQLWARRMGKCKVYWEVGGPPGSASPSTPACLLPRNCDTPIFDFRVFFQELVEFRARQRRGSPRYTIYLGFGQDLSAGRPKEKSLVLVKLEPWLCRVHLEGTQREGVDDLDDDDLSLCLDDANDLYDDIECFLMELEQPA"}
{"Sequence": "GCCTAGCACTTAGGTATCGGGTTTCGGTTCGTGCTAGTCTTGATTCGCTTGACGCTGCTG", "fitted relative affinity [z-score]": 8.59}
{"Sequence": "GCCTAGCACTGATCTTCCTTCATGGCCTGGTGCTAGGTCTTGATTCGCTTGACGCTGCTG", "fitted relative affinity [z-score]": 0.833}
{"Sequence": "GCCTAGCACTCACTCCTCTTTTTTTGACTGTGCTAGGTCTTGATTCGCTTGACGCTGCTG", "fitted relative affinity [z-score]": 2.05}
{"Sequence": "GCCTAGCACTTAGGTCTCCTTCTCCTTAAGTGCTAGGTCTTGATTCGCTTGACGCTGCTG", "fitted relative affinity [z-score]": 1.16}
{"data": "Sample 3", "target": "Histone acetyltransferase KAT6A, winged helix 2, GST fusion (KAT6A, Homo sapiens, UniProt Q92794, residues 85-181)", "technique": "protein binding microarray", "molecule type": "double-stranded DNA, one strand shown", "medium": "in vitro", "tested at": "not given", "setting": "8-mer, flanks averaged, mean of 2 arrays, mostly near background", "baseline": "not given", "reading": "higher = stronger binding", "Residues (chain)": "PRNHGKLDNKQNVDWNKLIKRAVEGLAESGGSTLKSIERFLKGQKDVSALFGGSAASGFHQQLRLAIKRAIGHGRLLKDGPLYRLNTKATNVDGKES"}
{"Sequence": "GACCCGTC", "E-score": -0.0346}
{"Sequence": "AACGCGGT", "E-score": 0.0924}
{"Sequence": "GTGAACAA", "E-score": 0.0485}
{"Sequence": "CGACGGCG", "E-score": 0.134}
{"data": "Single results of other studies"}
{"Molecule": "PhoQ, residues 284 288 289 292 302 303 SCKMEA", "target": "PhoP, residues 12 14 15 18 19 DLLYY (Escherichia coli, UniProt P23836)", "test": "Sort-seq, refers to: YFP reporter", "system": "E. coli", "conditions": "PhoQ-PhoP variant library, with: 10 µM Mg2+", "scale": "baseline: high Mg2+ state, higher = stronger signaling", "endpoint": "fold induction", "result": 1.44}
{"note": "Excerpt of the above (sample 2):"}
{"Sequence": "GCCTAGCACTGATCTTCCTTCATGGCCTGGTGCTAGGTCTTGATTCGCTTGACGCTGCTG", "fitted relative affinity [z-score]": 0.833}
{"Sequence": "GCCTAGCACTCACTCCTCTTTTTTTGACTGTGCTAGGTCTTGATTCGCTTGACGCTGCTG", "fitted relative affinity [z-score]": 2.05}
